Published values gathered from unrelated publications.
A part holds a random share of what one study measured.
UniProt O75676, sequence (whole entry, looked up): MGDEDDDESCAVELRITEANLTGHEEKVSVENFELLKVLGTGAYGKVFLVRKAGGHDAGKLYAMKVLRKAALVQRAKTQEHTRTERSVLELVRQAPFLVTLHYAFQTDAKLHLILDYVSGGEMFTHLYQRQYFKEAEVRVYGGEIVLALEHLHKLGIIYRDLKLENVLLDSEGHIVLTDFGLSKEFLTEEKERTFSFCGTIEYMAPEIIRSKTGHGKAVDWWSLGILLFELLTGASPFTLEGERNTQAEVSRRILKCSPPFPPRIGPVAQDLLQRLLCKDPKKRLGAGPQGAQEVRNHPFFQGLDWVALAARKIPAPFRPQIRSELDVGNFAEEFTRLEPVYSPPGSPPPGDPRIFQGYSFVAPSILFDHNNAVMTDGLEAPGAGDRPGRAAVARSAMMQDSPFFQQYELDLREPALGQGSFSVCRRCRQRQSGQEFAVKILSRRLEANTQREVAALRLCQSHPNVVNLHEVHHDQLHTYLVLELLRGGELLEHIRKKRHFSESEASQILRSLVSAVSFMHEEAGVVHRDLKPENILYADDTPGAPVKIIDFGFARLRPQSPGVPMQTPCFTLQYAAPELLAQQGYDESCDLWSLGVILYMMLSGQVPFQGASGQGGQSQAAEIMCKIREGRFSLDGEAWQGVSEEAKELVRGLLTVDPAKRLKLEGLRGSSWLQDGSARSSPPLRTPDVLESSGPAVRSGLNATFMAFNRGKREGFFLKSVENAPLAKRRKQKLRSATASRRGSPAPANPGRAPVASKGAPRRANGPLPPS
UniProt Q96PY6, sequence (whole entry, looked up): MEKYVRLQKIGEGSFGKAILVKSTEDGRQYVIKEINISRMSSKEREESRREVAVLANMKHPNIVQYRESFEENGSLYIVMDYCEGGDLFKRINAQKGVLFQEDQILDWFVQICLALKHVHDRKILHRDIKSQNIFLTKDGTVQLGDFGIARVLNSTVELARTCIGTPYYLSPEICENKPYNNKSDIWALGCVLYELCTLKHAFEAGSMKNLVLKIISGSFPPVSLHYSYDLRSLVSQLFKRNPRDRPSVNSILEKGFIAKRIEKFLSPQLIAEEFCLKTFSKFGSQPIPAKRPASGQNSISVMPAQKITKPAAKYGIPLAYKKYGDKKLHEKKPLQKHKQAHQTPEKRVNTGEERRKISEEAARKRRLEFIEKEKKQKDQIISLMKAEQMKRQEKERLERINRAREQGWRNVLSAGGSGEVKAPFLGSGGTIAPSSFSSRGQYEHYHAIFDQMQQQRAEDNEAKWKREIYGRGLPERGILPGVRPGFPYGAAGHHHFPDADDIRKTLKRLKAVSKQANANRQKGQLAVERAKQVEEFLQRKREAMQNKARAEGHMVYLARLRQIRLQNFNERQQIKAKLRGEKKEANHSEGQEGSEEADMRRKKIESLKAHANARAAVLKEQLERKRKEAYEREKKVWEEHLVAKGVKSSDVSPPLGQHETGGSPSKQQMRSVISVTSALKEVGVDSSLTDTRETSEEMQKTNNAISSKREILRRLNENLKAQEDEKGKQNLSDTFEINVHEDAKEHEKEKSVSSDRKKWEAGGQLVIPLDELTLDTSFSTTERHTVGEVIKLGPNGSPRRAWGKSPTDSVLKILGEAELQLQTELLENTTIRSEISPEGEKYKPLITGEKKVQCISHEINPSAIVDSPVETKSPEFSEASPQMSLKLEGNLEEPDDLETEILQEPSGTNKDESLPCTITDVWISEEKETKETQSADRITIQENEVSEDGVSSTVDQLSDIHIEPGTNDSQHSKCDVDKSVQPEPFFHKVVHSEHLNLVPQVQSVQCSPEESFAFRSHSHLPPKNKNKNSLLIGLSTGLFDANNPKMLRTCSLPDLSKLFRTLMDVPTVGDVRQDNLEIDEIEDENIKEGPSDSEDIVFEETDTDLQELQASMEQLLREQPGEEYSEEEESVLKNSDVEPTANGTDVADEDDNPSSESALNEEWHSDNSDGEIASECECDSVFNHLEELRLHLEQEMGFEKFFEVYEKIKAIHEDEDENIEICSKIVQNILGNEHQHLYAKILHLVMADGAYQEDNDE
UniProt Q99558, sequence (whole entry, looked up): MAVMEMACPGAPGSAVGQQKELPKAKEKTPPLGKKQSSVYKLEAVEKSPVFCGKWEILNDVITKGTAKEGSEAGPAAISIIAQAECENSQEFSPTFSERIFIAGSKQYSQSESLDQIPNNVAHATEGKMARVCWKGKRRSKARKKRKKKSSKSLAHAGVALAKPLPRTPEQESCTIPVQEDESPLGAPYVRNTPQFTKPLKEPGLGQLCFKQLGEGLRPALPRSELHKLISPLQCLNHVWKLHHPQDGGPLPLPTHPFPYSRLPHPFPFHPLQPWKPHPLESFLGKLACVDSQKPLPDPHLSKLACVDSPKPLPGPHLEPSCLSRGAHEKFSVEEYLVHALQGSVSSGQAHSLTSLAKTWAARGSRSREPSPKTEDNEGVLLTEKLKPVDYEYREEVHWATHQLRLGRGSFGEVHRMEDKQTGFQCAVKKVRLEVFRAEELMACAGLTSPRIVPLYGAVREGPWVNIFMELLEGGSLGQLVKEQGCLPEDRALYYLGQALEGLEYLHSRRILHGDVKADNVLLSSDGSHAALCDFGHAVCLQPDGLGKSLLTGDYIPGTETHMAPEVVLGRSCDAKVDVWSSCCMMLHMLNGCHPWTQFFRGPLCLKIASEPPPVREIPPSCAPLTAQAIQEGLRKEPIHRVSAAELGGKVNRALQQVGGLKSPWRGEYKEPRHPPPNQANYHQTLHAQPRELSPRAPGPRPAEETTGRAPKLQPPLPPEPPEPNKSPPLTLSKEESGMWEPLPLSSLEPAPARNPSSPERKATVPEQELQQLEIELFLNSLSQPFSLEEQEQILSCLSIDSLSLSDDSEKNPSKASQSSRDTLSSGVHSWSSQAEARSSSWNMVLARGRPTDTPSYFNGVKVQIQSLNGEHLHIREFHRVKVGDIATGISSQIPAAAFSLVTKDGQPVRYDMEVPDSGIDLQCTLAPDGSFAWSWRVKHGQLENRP
UniProt P29597, sequence (whole entry, looked up): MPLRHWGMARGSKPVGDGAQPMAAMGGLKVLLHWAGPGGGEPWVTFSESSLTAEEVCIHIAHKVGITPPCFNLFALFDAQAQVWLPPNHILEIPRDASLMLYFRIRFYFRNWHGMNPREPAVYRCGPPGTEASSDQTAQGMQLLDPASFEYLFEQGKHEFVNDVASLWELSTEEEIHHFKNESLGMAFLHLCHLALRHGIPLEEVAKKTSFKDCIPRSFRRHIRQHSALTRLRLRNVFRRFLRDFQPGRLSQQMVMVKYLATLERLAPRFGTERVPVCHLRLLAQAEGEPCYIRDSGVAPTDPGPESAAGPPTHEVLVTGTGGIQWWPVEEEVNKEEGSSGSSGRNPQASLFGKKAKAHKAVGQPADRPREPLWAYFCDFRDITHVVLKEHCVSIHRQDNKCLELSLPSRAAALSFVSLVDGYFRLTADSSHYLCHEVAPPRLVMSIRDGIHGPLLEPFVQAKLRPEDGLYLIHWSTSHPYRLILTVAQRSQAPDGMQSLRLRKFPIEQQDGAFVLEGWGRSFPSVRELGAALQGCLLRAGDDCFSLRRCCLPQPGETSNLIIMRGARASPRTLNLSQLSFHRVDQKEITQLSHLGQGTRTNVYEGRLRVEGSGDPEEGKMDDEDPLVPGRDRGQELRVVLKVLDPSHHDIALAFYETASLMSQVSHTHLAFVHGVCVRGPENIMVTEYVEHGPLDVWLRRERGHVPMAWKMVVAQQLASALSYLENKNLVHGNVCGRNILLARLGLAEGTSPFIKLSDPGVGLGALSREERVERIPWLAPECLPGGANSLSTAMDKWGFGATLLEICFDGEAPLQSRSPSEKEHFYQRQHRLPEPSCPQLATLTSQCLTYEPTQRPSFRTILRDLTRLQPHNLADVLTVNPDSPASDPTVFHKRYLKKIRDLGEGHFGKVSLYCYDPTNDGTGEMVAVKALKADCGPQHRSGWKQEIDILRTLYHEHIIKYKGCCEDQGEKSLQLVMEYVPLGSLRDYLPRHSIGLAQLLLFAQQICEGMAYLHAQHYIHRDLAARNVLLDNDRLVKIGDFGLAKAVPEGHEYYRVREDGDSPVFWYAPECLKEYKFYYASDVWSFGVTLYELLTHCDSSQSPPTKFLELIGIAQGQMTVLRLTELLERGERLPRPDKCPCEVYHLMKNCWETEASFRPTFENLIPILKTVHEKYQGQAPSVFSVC
UniProt Q9Y6M4, sequence (whole entry, looked up): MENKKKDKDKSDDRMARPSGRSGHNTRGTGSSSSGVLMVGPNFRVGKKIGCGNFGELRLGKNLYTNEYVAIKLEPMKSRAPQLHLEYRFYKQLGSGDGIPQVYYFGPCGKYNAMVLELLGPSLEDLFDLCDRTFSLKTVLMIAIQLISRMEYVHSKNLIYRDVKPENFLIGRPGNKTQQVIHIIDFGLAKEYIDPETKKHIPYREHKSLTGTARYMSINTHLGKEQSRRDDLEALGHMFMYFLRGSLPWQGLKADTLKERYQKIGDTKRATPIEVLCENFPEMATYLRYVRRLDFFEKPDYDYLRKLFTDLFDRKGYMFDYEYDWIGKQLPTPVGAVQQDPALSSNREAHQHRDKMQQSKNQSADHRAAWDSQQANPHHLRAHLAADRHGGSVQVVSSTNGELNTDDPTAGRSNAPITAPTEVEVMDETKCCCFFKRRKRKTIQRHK
UniProt Q6PHR2, sequence (whole entry, looked up): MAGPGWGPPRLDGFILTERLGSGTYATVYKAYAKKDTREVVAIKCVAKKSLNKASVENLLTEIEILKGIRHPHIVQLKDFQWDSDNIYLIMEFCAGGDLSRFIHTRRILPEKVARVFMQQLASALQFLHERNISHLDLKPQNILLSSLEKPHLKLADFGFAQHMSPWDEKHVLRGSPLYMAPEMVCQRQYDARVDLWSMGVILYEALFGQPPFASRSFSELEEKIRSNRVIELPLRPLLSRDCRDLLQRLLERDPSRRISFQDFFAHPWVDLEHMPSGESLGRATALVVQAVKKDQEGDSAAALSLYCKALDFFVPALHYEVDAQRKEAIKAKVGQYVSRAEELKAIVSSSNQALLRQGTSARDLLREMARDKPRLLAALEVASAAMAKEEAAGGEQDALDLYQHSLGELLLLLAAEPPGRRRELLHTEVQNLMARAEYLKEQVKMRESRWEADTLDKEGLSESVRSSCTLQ

Study 1
SMILES: CNC(=O)Nc1ccc2c(c1)[C@@]1(CC2)OC(=O)N(CC(=O)N(Cc2ccc(F)cc2)[C@@H](C)C(F)(F)F)C1=O
Effect on: cell-free assay
Technique: competition with immobilised ligand
Tested at: 1 µM
Measurement: remaining binding
Ribosomal protein S6 kinase alpha-4, N-terminal kinase domain (RPS6KA4, Homo sapiens, UniProt O75676): 100%
CDK17 (Homo sapiens, UniProt Q00537): 88%
STK11 (Homo sapiens, UniProt Q15831): 100%
NEK3 (Homo sapiens, UniProt P51956): 69%
EPHA8 (Homo sapiens, UniProt P29322): 96%
MET (Homo sapiens, UniProt P08581, Y1235D): 93%
Non-receptor tyrosine-protein kinase TYK2, JH1 (TYK2, Homo sapiens, UniProt P29597): 92%
Ribosomal protein S6 kinase alpha-6, C-terminal kinase domain (RPS6KA6, Homo sapiens, UniProt Q9UK32): 100%
Tyrosine-protein kinase ABL1, non-phosphorylated (ABL1, Homo sapiens, UniProt P00519, F317L): 66%
FGFR1 (Homo sapiens, UniProt P11362): 84%
MAP3K19 (Homo sapiens, UniProt Q56UN5): 73%
AKT2 (Homo sapiens, UniProt P31751): 99%
MAP3K4 (Homo sapiens, UniProt Q9Y6R4): 87%
LIM domain kinase 2 (LIMK2, Homo sapiens, UniProt P53671): 90%
MYLK2 (Homo sapiens, UniProt Q9H1R3): 77%

Study 2
Matrix: 1,9-decadiene/PBS
pH: 7.4
Measurement: logD
CC(C)C[C@@H]1NC(=O)[C@@H](C)NC(=O)[C@H](Cc2cscn2)NC(=O)[C@@H](C(C)C)NC(=O)[C@H](C(C)C)NC(=O)[C@H](CC(C)C)NC(=O)[C@@H](CC(C)C)NC1=O: -1.08
CC(C)C[C@@H]1NC(=O)[C@H](C)NC(=O)[C@H](CCC(=O)N2CCCC2)NC(=O)[C@H](CCC(=O)N2CCCC2)NC(=O)[C@@H](CCC(=O)N2CCCC2)NC(=O)[C@H](CC(C)C)NC(=O)[C@@H](CC(C)C)NC1=O: -2.64
CC(C)C[C@@H]1NC(=O)[C@H](C)NC(=O)[C@H](CC(C)C)NC(=O)[C@@H](CC(C)C)NC(=O)[C@H](CC(C)C)NC(=O)[C@H](C)NC(=O)[C@@H](CC(C)C)NC1=O: -0.142
CC(C)C[C@@H]1NC(=O)[C@H](C)NC(=O)[C@H](Cc2cscn2)NC(=O)[C@H](CC(C)C)NC(=O)[C@H](C(C)C)NC(=O)[C@H](CC(C)C)NC(=O)[C@@H](CC(C)C)NC1=O: -0.71

Study 3
Cell line: HaCaT
Tested at: 100 µM
Time: 18 h
Measurement: viability
CC(C)(C)NC(=O)[C@H]1CC[C@H]2[C@@H]3CC[C@H]4NC(=O)C=C[C@]4(C)[C@H]3CC[C@]12C: 91.8%
CC(=O)[C@H]1CC[C@H]2[C@@H]3C[C@H](C)C4=CC(=O)CC[C@]4(C)[C@H]3[C@@H](O)C[C@]12C: 82.1%
CC#C[C@]1(O)CC[C@H]2[C@@H]3CCC4=CC(=O)CCC4=C3[C@@H](c3ccc(N(C)C)cc3)C[C@@]21C: 65%
C[C@H]1[C@H](C)CC[C@]2(C(=O)O)CC[C@]3(C)C(=CC[C@@H]4[C@@]5(C)C[C@@H](O)[C@H](O)[C@@](C)(CO)[C@@H]5CC[C@]43C)[C@H]12: 17.7%
Cc1cccc(Nc2ccccc2C(=O)O)c1C: 95.1%
CCc1cc2c(cc1N1CCC(N3CCOCC3)CC1)C(C)(C)c1[nH]c3cc(C#N)ccc3c1C2=O: 30.2%
CC(C(=O)O)c1ccc2c(c1)[nH]c1ccc(Cl)cc12 (stereo not shown): 97.5%
CNCCC=C1c2ccccc2CCc2ccccc21: 20.1%
O=c1cc(-c2ccc(O)c(O)c2)oc2cc(O)cc(O)c12: 69.5%

Study 4
SMILES: O=C1NC(=O)/C(=C/c2ccc3nccnc3c2)S1
Effect on: enzyme activity
Mode: inhibitor
Tested at: 0.5 µM
Relative to: control
Measurement: remaining activity
FGFR3 (Homo sapiens, UniProt P22607): 97.3%
MAP3K5 (Homo sapiens, UniProt Q99683): 102%
TAOK2 (Homo sapiens, UniProt Q9UL54): 89.9%
TBK1 (Homo sapiens, UniProt Q9UHD2): 90.6%
ABL2 (Homo sapiens, UniProt P42684): 96.8%
ULK3 (Homo sapiens, UniProt Q6PHR2): 102%
ULK2 (Homo sapiens, UniProt Q8IYT8): 104%
MAPKAPK2 (Homo sapiens, UniProt P49137): 97.7%
MAP2K2 (Homo sapiens, UniProt P36507): 93.5%
CSNK1G3 (Homo sapiens, UniProt Q9Y6M4): 79.9%
MAP3K14 (Homo sapiens, UniProt Q99558): 101%
ARAF (Homo sapiens, UniProt P10398): 103%
NEK1 (Homo sapiens, UniProt Q96PY6): 73.6%
MAPK3 (Homo sapiens, UniProt P27361): 87.8%
ACVR1B (Homo sapiens, UniProt P36896): 109%

Excerpt of the above (study 3):
Cc1cccc(Nc2ccccc2C(=O)O)c1C: 95.1%
CCc1cc2c(cc1N1CCC(N3CCOCC3)CC1)C(C)(C)c1[nH]c3cc(C#N)ccc3c1C2=O: 30.2%
CC(C(=O)O)c1ccc2c(c1)[nH]c1ccc(Cl)cc12 (stereo not shown): 97.5%
CNCCC=C1c2ccccc2CCc2ccccc21: 20.1%
O=c1cc(-c2ccc(O)c(O)c2)oc2cc(O)cc(O)c12: 69.5%
